Measurements gathered from unrelated publications.
Lines come from different studies, so protocols differ.
Sequence of UniProt P61981 (whole entry, looked up): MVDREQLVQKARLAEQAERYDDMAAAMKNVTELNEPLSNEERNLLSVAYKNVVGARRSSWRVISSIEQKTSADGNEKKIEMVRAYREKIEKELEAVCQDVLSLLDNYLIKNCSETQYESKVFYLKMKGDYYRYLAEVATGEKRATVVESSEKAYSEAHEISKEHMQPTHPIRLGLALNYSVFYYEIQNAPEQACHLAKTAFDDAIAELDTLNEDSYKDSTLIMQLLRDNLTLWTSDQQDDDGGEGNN
Sequence of UniProt P02458 (whole entry, looked up): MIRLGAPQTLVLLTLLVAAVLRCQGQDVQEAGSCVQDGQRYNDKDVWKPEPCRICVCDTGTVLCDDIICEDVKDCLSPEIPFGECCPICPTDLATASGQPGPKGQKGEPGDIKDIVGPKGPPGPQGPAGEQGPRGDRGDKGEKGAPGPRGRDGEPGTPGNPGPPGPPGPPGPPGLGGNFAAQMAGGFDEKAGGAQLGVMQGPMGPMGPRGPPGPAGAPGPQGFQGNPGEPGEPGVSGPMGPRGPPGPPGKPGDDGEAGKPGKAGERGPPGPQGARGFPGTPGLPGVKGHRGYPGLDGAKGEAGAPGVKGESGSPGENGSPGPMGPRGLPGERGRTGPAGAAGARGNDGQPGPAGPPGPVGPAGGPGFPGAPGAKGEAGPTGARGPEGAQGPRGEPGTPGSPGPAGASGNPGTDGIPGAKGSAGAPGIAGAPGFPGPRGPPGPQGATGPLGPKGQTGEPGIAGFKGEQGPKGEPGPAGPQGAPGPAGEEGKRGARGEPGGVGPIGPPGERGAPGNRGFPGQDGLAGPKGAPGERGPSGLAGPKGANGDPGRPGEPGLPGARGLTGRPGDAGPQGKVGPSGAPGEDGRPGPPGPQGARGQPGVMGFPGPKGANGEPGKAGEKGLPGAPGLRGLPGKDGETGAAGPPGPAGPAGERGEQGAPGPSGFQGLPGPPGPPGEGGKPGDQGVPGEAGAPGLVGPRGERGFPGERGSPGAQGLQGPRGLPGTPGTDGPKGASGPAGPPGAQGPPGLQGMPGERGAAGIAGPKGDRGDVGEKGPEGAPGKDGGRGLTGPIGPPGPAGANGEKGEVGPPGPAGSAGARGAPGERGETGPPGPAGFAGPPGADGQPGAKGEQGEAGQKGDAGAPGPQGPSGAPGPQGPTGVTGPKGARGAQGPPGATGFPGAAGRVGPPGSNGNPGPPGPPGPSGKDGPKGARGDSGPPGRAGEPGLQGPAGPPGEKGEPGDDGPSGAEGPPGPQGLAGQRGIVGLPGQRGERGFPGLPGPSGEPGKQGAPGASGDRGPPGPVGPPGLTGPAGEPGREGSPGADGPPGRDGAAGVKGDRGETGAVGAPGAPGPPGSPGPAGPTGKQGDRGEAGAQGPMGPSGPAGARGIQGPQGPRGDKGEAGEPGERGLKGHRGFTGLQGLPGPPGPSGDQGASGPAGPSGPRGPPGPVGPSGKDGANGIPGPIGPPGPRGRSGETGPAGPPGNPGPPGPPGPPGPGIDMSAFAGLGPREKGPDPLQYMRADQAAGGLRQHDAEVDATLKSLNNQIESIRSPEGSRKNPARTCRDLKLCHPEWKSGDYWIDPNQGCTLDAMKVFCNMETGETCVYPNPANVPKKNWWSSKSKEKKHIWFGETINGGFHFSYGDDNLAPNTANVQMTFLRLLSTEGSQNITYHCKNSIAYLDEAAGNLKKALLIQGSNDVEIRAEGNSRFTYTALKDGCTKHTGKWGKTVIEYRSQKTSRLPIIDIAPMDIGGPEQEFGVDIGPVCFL
Sequence of UniProt P50552 (whole entry, looked up): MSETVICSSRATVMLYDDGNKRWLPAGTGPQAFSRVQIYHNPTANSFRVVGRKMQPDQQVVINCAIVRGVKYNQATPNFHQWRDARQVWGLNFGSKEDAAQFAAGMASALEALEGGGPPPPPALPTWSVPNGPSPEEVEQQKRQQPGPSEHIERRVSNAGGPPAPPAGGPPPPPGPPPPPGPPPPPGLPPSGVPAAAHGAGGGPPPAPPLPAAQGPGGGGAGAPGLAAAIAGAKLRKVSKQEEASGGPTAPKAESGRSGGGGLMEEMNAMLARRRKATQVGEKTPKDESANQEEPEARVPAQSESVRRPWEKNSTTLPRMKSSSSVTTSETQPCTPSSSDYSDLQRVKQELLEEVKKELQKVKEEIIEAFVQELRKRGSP
Sequence of UniProt Q96SW2 (whole entry, looked up): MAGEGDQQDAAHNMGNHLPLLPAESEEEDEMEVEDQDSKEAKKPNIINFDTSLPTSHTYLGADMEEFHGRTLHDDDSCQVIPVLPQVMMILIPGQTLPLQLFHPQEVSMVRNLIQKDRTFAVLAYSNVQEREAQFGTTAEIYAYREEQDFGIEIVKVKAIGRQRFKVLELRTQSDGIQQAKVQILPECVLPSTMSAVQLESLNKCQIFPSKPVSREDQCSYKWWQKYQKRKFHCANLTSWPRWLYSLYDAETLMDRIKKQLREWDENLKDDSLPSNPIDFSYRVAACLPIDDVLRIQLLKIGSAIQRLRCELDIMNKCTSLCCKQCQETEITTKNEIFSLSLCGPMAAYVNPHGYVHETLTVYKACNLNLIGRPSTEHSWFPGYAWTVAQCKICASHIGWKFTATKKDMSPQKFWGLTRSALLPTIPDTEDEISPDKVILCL
Sequence of UniProt P00811 (whole entry, looked up): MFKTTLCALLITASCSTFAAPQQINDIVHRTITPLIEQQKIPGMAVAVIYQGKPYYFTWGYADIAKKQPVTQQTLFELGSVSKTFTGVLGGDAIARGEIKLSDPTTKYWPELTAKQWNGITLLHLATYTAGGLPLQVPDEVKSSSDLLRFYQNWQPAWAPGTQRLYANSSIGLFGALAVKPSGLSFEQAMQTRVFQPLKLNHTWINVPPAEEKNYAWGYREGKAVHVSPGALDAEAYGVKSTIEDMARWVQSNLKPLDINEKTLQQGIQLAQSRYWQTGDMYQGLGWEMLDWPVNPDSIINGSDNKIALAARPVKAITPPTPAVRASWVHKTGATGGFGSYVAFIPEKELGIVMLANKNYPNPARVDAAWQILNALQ
Sequence of UniProt P07814 (whole entry, looked up): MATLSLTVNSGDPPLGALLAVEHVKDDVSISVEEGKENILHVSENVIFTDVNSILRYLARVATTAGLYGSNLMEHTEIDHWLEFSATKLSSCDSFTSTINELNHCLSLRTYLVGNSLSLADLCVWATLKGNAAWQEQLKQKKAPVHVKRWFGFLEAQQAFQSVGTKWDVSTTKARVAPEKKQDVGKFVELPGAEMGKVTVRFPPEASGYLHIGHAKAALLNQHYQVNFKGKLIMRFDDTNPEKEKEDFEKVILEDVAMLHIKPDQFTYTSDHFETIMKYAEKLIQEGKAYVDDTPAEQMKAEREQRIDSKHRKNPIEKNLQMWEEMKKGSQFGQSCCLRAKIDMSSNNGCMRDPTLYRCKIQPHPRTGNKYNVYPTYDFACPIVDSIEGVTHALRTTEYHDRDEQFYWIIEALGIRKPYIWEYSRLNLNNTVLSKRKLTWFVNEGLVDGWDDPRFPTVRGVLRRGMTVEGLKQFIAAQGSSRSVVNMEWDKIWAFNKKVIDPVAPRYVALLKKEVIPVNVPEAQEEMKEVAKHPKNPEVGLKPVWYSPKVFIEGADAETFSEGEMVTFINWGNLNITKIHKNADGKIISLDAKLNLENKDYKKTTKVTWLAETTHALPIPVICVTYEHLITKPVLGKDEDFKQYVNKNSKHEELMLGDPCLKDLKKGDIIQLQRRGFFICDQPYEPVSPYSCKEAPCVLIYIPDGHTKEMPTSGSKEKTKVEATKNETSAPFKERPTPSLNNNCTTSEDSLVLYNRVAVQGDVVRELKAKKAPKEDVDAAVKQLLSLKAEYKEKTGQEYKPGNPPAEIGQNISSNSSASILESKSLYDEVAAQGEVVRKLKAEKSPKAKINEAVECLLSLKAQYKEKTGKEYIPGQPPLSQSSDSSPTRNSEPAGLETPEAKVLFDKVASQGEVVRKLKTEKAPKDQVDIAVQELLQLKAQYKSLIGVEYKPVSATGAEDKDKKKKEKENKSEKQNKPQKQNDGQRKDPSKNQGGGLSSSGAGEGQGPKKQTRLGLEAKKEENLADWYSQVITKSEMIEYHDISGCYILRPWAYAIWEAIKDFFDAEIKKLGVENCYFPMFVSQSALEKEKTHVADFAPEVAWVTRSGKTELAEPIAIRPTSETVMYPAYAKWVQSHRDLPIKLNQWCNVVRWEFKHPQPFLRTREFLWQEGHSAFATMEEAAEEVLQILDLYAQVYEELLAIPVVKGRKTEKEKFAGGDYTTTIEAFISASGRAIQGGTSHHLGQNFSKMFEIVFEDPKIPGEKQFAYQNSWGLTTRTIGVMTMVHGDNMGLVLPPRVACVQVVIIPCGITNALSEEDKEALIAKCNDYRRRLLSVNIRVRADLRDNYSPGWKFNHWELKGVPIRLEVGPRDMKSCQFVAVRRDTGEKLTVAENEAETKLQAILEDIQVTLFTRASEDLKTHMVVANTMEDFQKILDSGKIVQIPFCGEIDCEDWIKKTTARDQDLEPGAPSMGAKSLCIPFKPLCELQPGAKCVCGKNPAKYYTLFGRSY

| SMILES | target | assay | test system | setting | Kd [µM] |
| --- | --- | --- | --- | --- | --- |
| CC[C@H](C)[C@H](NC(=O)[C@H](CCCCN)NC(=O)[C@H](C)NC(=O)[C@H](CCCNC(=N)N)NC(=O)[C@H](CCCCN)NC(=O)[C@H](CCC(N)=O)NC(=O)[C@H](CCC(N)=O)NC(=O)[C@H](CC(N)=O)NC(=O)[C@H](CS)NC(=O)[C@H](CC(C)C)NC(=O)[C@H](CC(N)=O)NC(=O)[C@@H]1CCCN1C(=O)[C@H](CC(=O)O)NC(=O)[C@H](CC(C)C)NC(=O)[C@H](C)NC(=O)[C@H](C)NC(=O)[C@H](CCC(=O)O)NC(=O)[C@H](Cc1c[nH]c2ccccc12)NC(=O)[C@H](Cc1ccc(O)cc1)NC(=O)[C@H](CCCNC(=N)N)NC(=O)[C@H](CC(N)=O)NC(=O)[C@H](CCCNC(=N)N)NC(=O)[C@H](CCSC)NC(=O)[C@H](CCC(=O)O)NC(=O)[C@H](CCCCN)NC(=O)[C@H](CO)NC(=O)[C@H](Cc1ccccc1)NC(C)=O)C(=O)N[C@@H](CCCNC(=N)N)C(=O)N[C@@H](CO)C(=O)N[C@H](C(=O)N[C@@H](Cc1ccc(O)cc1)C(=O)N[C@@H](CCC(=O)O)C(=O)N[C@@H](CCC(=O)O)C(=O)NCC(=O)N[C@@H](CCC(=O)O)C(N)=O)[C@@H](C)CC | ERBB2 (Homo sapiens, UniProt P04626) | binding, SPR |  |  | 0.044 |
| C[C@H]1NC(=O)[C@H](CCC(=O)N[C@@H](CCCCN)C(N)=O)NC(=O)[C@@H](C)NC(=O)[C@H](Cc2ccc(F)cc2)NC(=O)[C@H](Cc2c[nH]c3ccccc23)NC(=O)[C@H](CCCNC(=N)N)NC(=O)[C@H](Cc2ccc(O)cc2)NC(=O)[C@H](CCCNC(=N)N)NC1=O | EPRS1 (Homo sapiens, UniProt P07814) | binding |  |  | 2.5 |
| CC[C@H](C)[C@H](NC(=O)[C@@H](NC(=O)CC(NC(=O)[C@H](Cc1ccccc1)NC(=O)[C@H](C)NC(=O)[C@H](CCCNC(=N)N)NC(=O)CNC(=O)[C@@H]1CCCN1C(=O)CNC(=O)[C@@H](N)CCCNC(=N)N)c1ccccc1[N+](=O)[O-])[C@@H](C)O)C(=O)O (stereo partly drawn) | H-2 class I histocompatibility antigen, D-D alpha chain, 21 (H2-D1, Mus musculus, UniProt P01900) |  |  |  | 31 |
| C=CC1CN(Cc2ccccn2)C(=O)C2CCCC1N2S(=O)(=NC1C=CCCC1)c1cc(Cl)cc(Cl)c1 (mixture of isomers) | uncharacterized protein, residues 23-253 (Pseudomonas aeruginosa, UniProt Q9HYX8) | binding, competitive fluorescence polarization |  | 30 min, protein 40 nM, added: fluorescent tracer 1 nM | > 40 |
| CC(C)C[C@H](NC(=O)[C@H](CCCNC(=N)N)NC(=O)[C@H](CC(C)C)NC(=O)[C@H](CO)NC(=S)Nc1ccc2c(c1)C(=O)OC21c2ccc(O)cc2Oc2cc(O)ccc21)C(=O)N[C@@H](CCCCN)C(=O)N[C@@H](CS)C(=O)NCC(=O)N[C@@H](CCP(=O)(O)O)C(=O)NCC(=O)N1CCC[C@H]1C(=O)N[C@H](C(=O)N[C@@H](Cc1c[nH]c2ccccc12)C(=O)N[C@@H](CC(C)C)C(=O)N[C@H](C(=O)N1CCC[C@H]1C(=O)N[C@@H](CCCNC(=N)N)C(=O)O)C(C)C)C(C)C | YWHAG (Homo sapiens, UniProt P61981) | binding, fluorescence anisotropy |  | pH 7.5, FITC-labelled phosphopeptide titration | 22.2 |
| CC(=O)N[C@@H](CO)C(=O)N[C@@H](Cc1ccccc1)C(=O)N[C@@H](CCC(=O)O)C(=O)N[C@@H](Cc1ccccc1)C(=O)N1CC[C@@H]2C=C[C@H]3CC[C@@H](C(=O)N4CC[C@@H]5C=C[C@H]6CC[C@@H](C(=O)N[C@H](C(=O)N[C@@H](CCC(=O)O)C(=O)N[C@@H](CC(=O)O)C(=O)N[C@@H](CCC(=O)O)C(=O)N[C@@H](CC(C)C)C(N)=O)[C@@H](C)O)N6C(=O)[C@H]54)N3C(=O)[C@H]21 | VASP (Homo sapiens, UniProt P50552) | binding, fluorescence |  |  | 19 |
| N=C(N)NCCC[C@H](NC(=O)CNC(=O)[C@@H](N)CCCCN)C(=O)N[C@@H](CCCNC(=N)N)C(=O)N[C@@H](CCCNC(=N)N)C(=O)N[C@@H](CCCNC(=N)N)C(=O)N[C@@H](CCCNC(=N)N)C(=O)N[C@@H](Cc1c[nH]cn1)C(=O)N[C@@H](Cc1c[nH]cn1)C(=O)N[C@@H](Cc1c[nH]cn1)C(=O)N[C@@H](Cc1c[nH]cn1)C(=O)N[C@@H](CCCNC(=N)N)C(=O)N[C@@H](CCCNC(=N)N)C(=O)N[C@@H](CCCNC(=N)N)C(=O)N[C@@H](CCCNC(=N)N)C(=O)N[C@@H](CCCNC(=N)N)C(=O)N[C@@H](Cc1c[nH]cn1)C(=O)N[C@@H](Cc1c[nH]cn1)C(=O)N[C@@H](Cc1c[nH]cn1)C(=O)N[C@@H](Cc1c[nH]cn1)C(=O)NCC(=O)O | Collagen alpha-1(II) chain (COL2A1, Homo sapiens, UniProt P02458) | binding, SPR | PBS |  | 4.57 |
| C=CCN=CC1C(=O)CC(C)(C)CC1=O | Beta-lactamase (ampC, Escherichia coli K-12, UniProt P00811) |  |  |  | 1400 |
| CC[C@H](C)[C@H](NC(=O)[C@H](CCSC)NC(=O)[C@H](CC(=O)O)NC(=O)[C@H](CCC(N)=O)NC(=O)[C@H](CC(C)C)NC(=O)[C@@H](N)CCC(=O)O)C(=O)N[C@H]1CC(=O)NC1=O | Protein cereblon, with DDB1 (CRBN, Homo sapiens, UniProt Q96SW2) | binding |  |  | 0.0319 |

Excerpt of the above:
| SMILES | target | assay | test system | setting | Kd [µM] |
| --- | --- | --- | --- | --- | --- |
| C=CC1CN(Cc2ccccn2)C(=O)C2CCCC1N2S(=O)(=NC1C=CCCC1)c1cc(Cl)cc(Cl)c1 (mixture of isomers) | uncharacterized protein, residues 23-253 (Pseudomonas aeruginosa, UniProt Q9HYX8) | binding, competitive fluorescence polarization |  | 30 min, protein 40 nM, added: fluorescent tracer 1 nM | > 40 |
